Experimental data collected from several papers.
Numbered parts are unrelated; each lists some results of a single study.

Sample 1
Target: Ras GTPase-activating protein-binding protein 1, RRM domain (G3BP1, Homo sapiens, UniProt Q13283)
Chain of UniProt Q13283 (whole entry, looked up): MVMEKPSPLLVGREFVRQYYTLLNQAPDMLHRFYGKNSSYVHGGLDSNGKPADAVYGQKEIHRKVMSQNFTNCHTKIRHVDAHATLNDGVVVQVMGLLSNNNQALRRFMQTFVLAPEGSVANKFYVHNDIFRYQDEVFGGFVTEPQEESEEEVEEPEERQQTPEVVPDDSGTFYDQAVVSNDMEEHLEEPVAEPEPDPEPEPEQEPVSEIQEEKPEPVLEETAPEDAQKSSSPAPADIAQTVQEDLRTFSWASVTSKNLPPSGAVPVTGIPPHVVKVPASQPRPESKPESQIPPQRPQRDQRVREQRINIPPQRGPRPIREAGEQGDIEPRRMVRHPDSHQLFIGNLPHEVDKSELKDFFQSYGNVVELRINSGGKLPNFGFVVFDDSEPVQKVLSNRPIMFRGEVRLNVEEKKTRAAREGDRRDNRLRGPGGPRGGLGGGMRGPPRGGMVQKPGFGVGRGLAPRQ
Technique: RNA Bind-n-Seq
Form: RNA
Sample: in vitro
Tested at: 1 µM
Setting: whole 134-nt RNA, ends assumed
Together with: 150 mM KCl
Reference: input library
Reading: higher = stronger binding
All sequences stand within: GGGAGUUCUACAGUCCGACGAUC … UGGAAUUCUCGGGUGUCAAGG
Sequence | log2 enrichment
CAAGUCCUGUGCUACACAUCGUAUGUACCGAAUCGGGAAAGGGAAAAAGGGAGGGAAAGUAUUAUGUUACGCCGUUCGGAUCUGCACUUC | 0.945
AAGUCCUGUGCUACACAUCGUAUGUACCGAAUCGGUUUUUUUGGAAAAAGGAAAGGAAAGUAUUAUGUUACGCCGUUCGGAUCUGCACUU | -0.379
UGGCCCUGGUGGCAUGCGGGGAGGAAGAGGUGGCCUCAUGGAUCGUGGUGGUCCCGGUGGAAUCUUCAGAGGUGGCCGUGGUGGAGACAG | 0.743
CUGUGCUACACAUCGUAUGUACCGAAUCGGGGUUUGGGGUUUUUUUGGGGAAAAAAAGGGGAAAGUAUUAUGUUACGCCGUUCGGAUCUG | 1.03
CUCAAGUCCUGUGCUACACAUCGUAUGUACCGAAUCGUGUGUGUGUGUGUGUGUAAAGUAUUAUGUUACGCCGUUCGGAUCUGCACUUCC | -0.116
AGUCCUGUGCUACACAUCGUAUGUACCGAAUCGGAAAAGGGGAAAAGGGGAAAAGGGGAAAGUAUUAUGUUACGCCGUUCGGAUCUGCAC | 0.272
UGCCCAGCUCAUGCUGGACCACCUGAAGAACAGUGCUCCCAGCAAGCGAGAGAUUGCCCAGCUCAAGAACCAGGUAUCCACAGAGAGCAC | -0.346
UUAGAAGAACCCGAAGAACCUAAAGUGCUAACACCAGAAGAACAAUUAGCAGAUAAACUGCGGCUAAAGAAAUUACAGGAAGAGUCAGAC | 0.165
UCAAGUCCUGUGCUACACAUCGUAUGUACCGAAUCGGAAAGGAAAGGGGAAAGGAAAGUAUUAUGUUACGCCGUUCGGAUCUGCACUUCC | -0.172
AGUCCUGUGCUACACAUCGUAUGUACCGAAUCGGGAAAAAAAGGGUUUGGGAAAGGGAAAGUAUUAUGUUACGCCGUUCGGAUCUGCACU | 0.399
AAGUCCUGUGCUACACAUCGUAUGUACCGAAUCGGGUUUUGGUUUUGGGUUUUGGGAAAGUAUUAUGUUACGCCGUUCGGAUCUGCACUU | -0.2
UGGAAGUGGCGCUGGCGCCUGAAGAGUUGGAGCUGGAUCCUAUGGCCAUGACCCAGAAGUAUGAGGAGCAUGUGCGGGAGCAGCAGGCUC | -0.1
UUUCUCUCACCAGGUACCAGGUCAUCAGUACACCAUCUGAUAUUUUCAUGGUGAUGGAAUAUGUCUCAGGAGGAGAGCUAUUUGAUUAUA | -0.148
GUCCUGUGCUACACAUCGUAUGUACCGAAUCGGGUUUUUUUGGGUUUUUGGGUUUGGGAAAGUAUUAUGUUACGCCGUUCGGAUCUGCAC | -0.144

Sample 2
Target: Eukaryotic initiation factor 4A-I (EIF4A1, Homo sapiens, UniProt P60842, residues 1-406, full length assumed)
Chain of UniProt P60842 (whole entry, looked up): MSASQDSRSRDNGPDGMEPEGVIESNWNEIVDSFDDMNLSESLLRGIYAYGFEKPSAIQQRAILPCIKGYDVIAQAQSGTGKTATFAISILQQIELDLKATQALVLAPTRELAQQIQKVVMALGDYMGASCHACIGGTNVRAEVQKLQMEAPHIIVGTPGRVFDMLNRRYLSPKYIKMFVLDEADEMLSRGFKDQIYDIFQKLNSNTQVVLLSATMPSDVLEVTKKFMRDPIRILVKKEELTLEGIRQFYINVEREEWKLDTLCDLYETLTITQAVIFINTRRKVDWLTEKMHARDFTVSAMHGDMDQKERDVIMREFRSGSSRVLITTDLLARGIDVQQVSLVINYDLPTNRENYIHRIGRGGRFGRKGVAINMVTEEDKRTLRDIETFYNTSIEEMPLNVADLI
Technique: RNA Bind-n-Seq
Form: RNA
Sample: in vitro
Tested at: 15 pmol
Setting: 4-mer, random 30-nt RNA, single round
Together with: 3 µM RocA, 2 mM AMP-PNP
Reference: mean of 4-mers
Reading: higher = stronger binding
Sequence | 4-mer enrichment Z-score
CAAA | 0.134
ACCU | -1.04
AUUG | 0.447
GUGA | 2.04
UUUC | -0.917
GUGC | 0.576
AUAG | 0.595
CACA | -1.32
ACCG | -0.597
UACU | -0.748
AAAA | 2.67
CUAA | -0.182
GACC | -0.78
AUUU | 0.134
GGGG | 2.27
CUGG | 0.173
CCCC | -0.927
AAGG | 1.62
CCAC | -1.43

Sample 3
Target: Interferon regulatory factor 3, full length, phosphomimetic (IRF3, Homo sapiens, UniProt Q14653, residues 1-427, S386D/S396D/S398D/S402D/T404D/S405D)
Technique: protein-binding microarray
Form: double-stranded DNA, one strand shown
Sample: in vitro
Tested at: 2540 nM top
Setting: 60-bp whole probe
Together with: salmon DNA 0.4 mg/ml
Reference: random background probes
Reading: higher = stronger binding
All sequences stand within: GCCTAGCAC … GTCTTGATTCGCTTGACGCTGCTG
Residues (chain): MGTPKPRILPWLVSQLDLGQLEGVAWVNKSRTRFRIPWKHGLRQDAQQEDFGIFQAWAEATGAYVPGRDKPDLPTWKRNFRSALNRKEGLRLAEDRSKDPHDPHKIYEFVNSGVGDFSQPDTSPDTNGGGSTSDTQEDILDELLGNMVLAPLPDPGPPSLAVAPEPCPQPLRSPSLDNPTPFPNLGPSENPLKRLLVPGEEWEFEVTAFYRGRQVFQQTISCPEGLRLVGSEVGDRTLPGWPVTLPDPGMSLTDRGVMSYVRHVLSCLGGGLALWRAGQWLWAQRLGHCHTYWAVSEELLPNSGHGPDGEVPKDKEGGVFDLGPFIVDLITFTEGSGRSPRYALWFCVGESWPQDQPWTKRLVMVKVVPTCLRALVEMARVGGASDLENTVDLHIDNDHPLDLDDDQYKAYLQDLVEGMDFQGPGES
Sequence | fitted relative affinity [z-score]
ATCTTCATGAAGTTTTAATAAGTGCTA | 0.221
TCAATCGTAAGCAAAAAACTGTGCTAG | -0.113
GACGGTATCGGTTGCGGGACGTGCTAG | 2.79
AACCGCCTCTCCCTTAGACGGTGCTAG | -0.0904
ATGAGCTTCAAACCATAACCGTGCTAG | -0.428
TTAGATTTCAGTCTCGCTTAGTGCTAG | 2.26
TTAAGTATCCTTTTCCTTTAGTGCTAG | 9
TTTTTTTTGGAATGTCTTCCCGTGCTA | 0.514
TCATTTGTATTTTTGATACTGTGCTAG | 1.55
TTCCAGCTGGTGACTAGCGAGTGCTAG | -0.627
TTAGGTTTCGGTATCGTTTAGTGCTAG | 8.45
GACGGTTTCGCTTCCGGGACGTGCTAG | 7.8
CCTCTTCTGGATCTCAGACTGTGCTAG | 1.87
GACGATTTCGTGTATCGAGACGTGCTA | 1.09
TTAGGTATCCGACTGCTTTAGTGCTAG | 1.95
GCCTACTCGCTCGTCCGGAGGTGCTAG | 0.607
TTAGGTAGCGACTATCGGTTAGTGCTA | -0.252
GACGACCTGGGGTATCGAGACGTGCTA | -0.753
GACGATATCGGGTATCGCGACGTGCTA | 0.0539
TCACCACCCACTCTGGCACTGTGCTAG | -0.0609

Sample 4
Target: RNA binding protein fox-1 homolog 2, RRM domain, GST-SBP tag (RBFOX2, Homo sapiens, UniProt O43251-10, residues 100-194)
Technique: RNA Bind-n-Seq
Form: RNA
Sample: in vitro
Tested at: 365 nM
Setting: natural RNA segment, single round, ends assumed
Reference: no-protein control
Reading: higher = stronger binding
All sequences stand within: GGGAGUUCUACAGUCCGACGAUC … UGGAAUUCUCGGGUGCCAA
Residues (chain): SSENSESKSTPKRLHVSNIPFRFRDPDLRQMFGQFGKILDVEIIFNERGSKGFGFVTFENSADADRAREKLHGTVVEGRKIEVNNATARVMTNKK
Sequence | RBNS enrichment (R)
GCAUUUCCUAUAGACAGGUUAAAUUUUGGGUUGAAAGUUUUGUGGGUGGGUUGGUGUCUCUUAUCGCUCCACUGGGGUUCCUCUCUGGAUACAGGAGGUGGCUUCUUCAG | 0.564
GGCAGUGUUGUAGUUUCCCUUGAAGGAAAGCCACUAUAAAAUAAUAGCCAAGUGCCAUUUGAUCUUAAGGGGCUUACACGUAUCUCUCCAGCUCAGUCCACUGGAAUUGU | 0.433
UCCUCUUCUGGAAUGUUGCUGACCCAGGCCGUGGACUUGGCUGAGCACUGUUAGACACACACAGACCUGCAGGCUGUUUUAGAAUGUUUUGAUCUCUUUGGGGAAUCUGG | 1.57
GAGUGCGCGCCGUCGGGGAGGCGGGAACGCGGGCCCGCGCGCGGACUUUGCACUUUGAAUCCAGAGGAAGAUGAAUUUUUAAAAUCUCCAUCAAACGUGCCUUAAAGCUA | 0.366
CUCCGAGGACCUCAGAACUGGUGCAGCUUCUCUCUCCCUCCCUCCCACAGACUGAACCUUUCGCCAGAAGCUGUCCUUAUAACGCCUUAUACGCAUACACAGCCAGGAAA | 0.519
AAGAGUGGGGUGAGGAAGAAGCCACAUGACUGUGGAGAGAAGUGGGACAGGCCUCAGUCCCUAGAGGUGUGUUUAAGCUUGUUGGGCAAGAGCUGGAUGCGGAUCUUCGG | 0.814
AGCCCGGGUGGGGCUGCAGAAAAAUGAUUGGCCCCAGUCCCCUUGUUUGUCCCUUCUACAGGCAUGAGGAAUCUGGGAGGCCCUGAGACAGGGAUUGUGCUUCAUUCCAA | 1.6
AACCCAGUCAUCCCACUAUGAAUCUGGCAUCUUCUUAUGCUUCUAGUGUUUUGGCCAUACAUCAACCAAGGGGUUUAAUUUAUCCAAUGCUUGACGACAUGUUCAGGAGG | 0.281
UUCUUCCUGUUCACCCUGGUGGUGUAUGGGUGAGGUGGGAAGGUGACCCCCCCCCCAAAUAUAUAUCAGCCCAACAGCCCUAAGUCUCCUCCUUUAUUAUUAGGAAAACC | 0.492
GUUUGUAGUCAUGUUGUCAACAGAGGCAAAGUUAAGCUUGAUGAUGGUUAAAAUCGGUUUGAUAGCACCAUGGGACAUUUUUCUAACAAAAAUAAAUGCAUGAAGAGACA | 11.4
CGAUAUUUAUCUUUGGUAAAUGACUUUAGAGCAGUUAAAGACAUUGCUUAAAAACUCAGAAUCAGAAAAACACUGAAUUAUUUAAGAACACAUAUAUUUUAAAGUAUAAC | 0.707
UCCCGAAAUAAAACACAACAAAAAAAACCCCACCCCAUAAUCUUCAGGACAGUCUGUCUUAAAUUUCAUAUGAGAACUUCUUCCUCCCUUUGAAGAUCUGUCCAUAUUCA | 0.835

Excerpt of the above (sample 4):
Sequence | RBNS enrichment (R)
GCAUUUCCUAUAGACAGGUUAAAUUUUGGGUUGAAAGUUUUGUGGGUGGGUUGGUGUCUCUUAUCGCUCCACUGGGGUUCCUCUCUGGAUACAGGAGGUGGCUUCUUCAG | 0.564
GGCAGUGUUGUAGUUUCCCUUGAAGGAAAGCCACUAUAAAAUAAUAGCCAAGUGCCAUUUGAUCUUAAGGGGCUUACACGUAUCUCUCCAGCUCAGUCCACUGGAAUUGU | 0.433
UCCUCUUCUGGAAUGUUGCUGACCCAGGCCGUGGACUUGGCUGAGCACUGUUAGACACACACAGACCUGCAGGCUGUUUUAGAAUGUUUUGAUCUCUUUGGGGAAUCUGG | 1.57
GAGUGCGCGCCGUCGGGGAGGCGGGAACGCGGGCCCGCGCGCGGACUUUGCACUUUGAAUCCAGAGGAAGAUGAAUUUUUAAAAUCUCCAUCAAACGUGCCUUAAAGCUA | 0.366
CUCCGAGGACCUCAGAACUGGUGCAGCUUCUCUCUCCCUCCCUCCCACAGACUGAACCUUUCGCCAGAAGCUGUCCUUAUAACGCCUUAUACGCAUACACAGCCAGGAAA | 0.519
AAGAGUGGGGUGAGGAAGAAGCCACAUGACUGUGGAGAGAAGUGGGACAGGCCUCAGUCCCUAGAGGUGUGUUUAAGCUUGUUGGGCAAGAGCUGGAUGCGGAUCUUCGG | 0.814
AGCCCGGGUGGGGCUGCAGAAAAAUGAUUGGCCCCAGUCCCCUUGUUUGUCCCUUCUACAGGCAUGAGGAAUCUGGGAGGCCCUGAGACAGGGAUUGUGCUUCAUUCCAA | 1.6
AACCCAGUCAUCCCACUAUGAAUCUGGCAUCUUCUUAUGCUUCUAGUGUUUUGGCCAUACAUCAACCAAGGGGUUUAAUUUAUCCAAUGCUUGACGACAUGUUCAGGAGG | 0.281
UUCUUCCUGUUCACCCUGGUGGUGUAUGGGUGAGGUGGGAAGGUGACCCCCCCCCCAAAUAUAUAUCAGCCCAACAGCCCUAAGUCUCCUCCUUUAUUAUUAGGAAAACC | 0.492
GUUUGUAGUCAUGUUGUCAACAGAGGCAAAGUUAAGCUUGAUGAUGGUUAAAAUCGGUUUGAUAGCACCAUGGGACAUUUUUCUAACAAAAAUAAAUGCAUGAAGAGACA | 11.4
CGAUAUUUAUCUUUGGUAAAUGACUUUAGAGCAGUUAAAGACAUUGCUUAAAAACUCAGAAUCAGAAAAACACUGAAUUAUUUAAGAACACAUAUAUUUUAAAGUAUAAC | 0.707
